{"data": "Published values gathered from unrelated publications", "note": "± gives the spread as reported."}
{"Structure (SMILES)": "O=[N+]([O-])c1ccc(C=[N+]2N=C(Nc3ccccc3)[S][Pd-]2([Cl])[Cl])s1", "cell line": "MDCK", "assay": "cell proliferation", "IC50 [µM]": 55.3}
{"Structure (SMILES)": "CN1CCCC1CCO/N=C1/C=C2CCC3C(CC[C@]4(C)/C(=C/c5ccccn5)CCC34)[C@@]2(C)CC1 (stereo partly shown)", "cell line": "CEM", "assay": "cytotoxicity, alamarBlue", "conditions": "72 h", "IC50 [µM]": 21.9}
{"Structure (SMILES)": "CC(C)Cc1ccc(C(C)C(=O)N/N=C/c2ccc(OCC(=O)N/N=C/c3ccc([N+](=O)[O-])cc3)cc2)cc1 (stereo not shown)", "cell line": "U87 MG", "assay": "cytotoxicity, MTT", "IC50 [µM]": "36.7 ± 0.14"}
{"Structure (SMILES)": "O=C(/C=C/c1ccc(O)cc1)c1ccc(O)cc1O", "cell line": "human cells", "assay": "NF-κB reporter gene, inhibitor", "conditions": "added: TNF-alpha", "IC50 [µM]": 32.4}
{"Structure (SMILES)": "Cc1ccc(C(c2c[nH]c3ccccc23)c2c[nH]c3ccccc23)cc1", "cell line": "B16", "assay": "cell growth or viability, MTT", "conditions": "24 h", "IC50 [µM]": 13.4}
{"Structure (SMILES)": "CSCC[C@@H]1NC(=O)CN(S(C)(=O)=O)CCNC(=O)[C@H](CCCCN)NC(=O)[C@H](CC(C)C)NC(=O)[C@H](CCCCN)NC(=O)[C@H](CC(C)C)NC(=O)[C@H](CCCCN)NC(=O)CN(S(C)(=O)=O)CCNC(=O)[C@H](Cc2c[nH]c3ccccc23)NC(=O)[C@H](CO)NC(=O)[C@H](C(C)C)NC(=O)[C@H](C)NC1=O", "cell line": "NCI-H929", "assay": "viability, TO-PRO-3 staining, flow cytometry", "IC50 [µM]": 6.2}
{"Structure (SMILES)": "CC1(C)CCCC(C)(C2CCC3(C)C2C(O)CC2C4(C)CCC(O)C(C)(C)C4C(OC(=O)c4cn(-c5ccccc5)nn4)CC23C)O1 (stereo not shown)", "cell line": "Hep3B", "assay": "HRE reporter gene, inhibitor", "conditions": "24 h, hypoxia", "IC50 [µM]": "> 30"}
{"Structure (SMILES)": "CCCc1nc2ccccn2c1Nc1ccc(C(=O)NO)cc1", "cell line": "CAL-27", "assay": "cell growth or viability, MTT", "IC50 [µM]": 3.87}
{"Structure (SMILES)": "CSCC[C@@H]1NC(=O)CN(S(C)(=O)=O)CCNC(=O)[C@H](CCCCN)NC(=O)[C@H](CC(C)C)NC(=O)[C@H](CCCCN)NC(=O)[C@H](CC(C)C)NC(=O)[C@H](CCCCN)NC(=O)CN(S(C)(=O)=O)CCNC(=O)[C@H](Cc2c[nH]c3ccccc23)NC(=O)[C@H](CO)NC(=O)[C@H](C)NC(=O)[C@H](C(C)C)NC1=O", "cell line": "NCI-H929", "assay": "viability, TO-PRO-3 staining, flow cytometry", "IC50 [µM]": 19}
{"Structure (SMILES)": "CC(=O)OC1C(=O)C2(C)C(O)CC3OCC3(OC(C)=O)C2C(OC(=O)c2ccccc2)C2(O)CC(OC(=O)C(OC(=O)OC3C=CCCC(C)(C(=O)NCC(=O)O)CC3)C(NC(=O)c3ccccc3)c3ccccc3)C(C)=C1C2(C)C (stereo not shown)", "cell line": "MC-38", "assay": "cell growth or viability, MTT", "conditions": "24 h", "IC50 [µM]": 0.08}
